Assay results pooled from the literature.
Each line is one published result; not all experiments were run side by side. ± gives the spread as reported.
Organism: Trypanosoma brucei brucei

| Compound | assay | system | conditions | scale | measurement | result |
| --- | --- | --- | --- | --- | --- | --- |
| Nc1ncnc2c1c(Cl)cn2[C@@H]1O[C@H](CO)[C@@H](O)[C@H]1O | parasite growth, resazurin | Squib 427 | 72 h |  | EC50 | 1330 ± 340 nM |
| C[C@H](Nc1c(-c2c(F)cc(OCCCN(C)C)cc2F)c(Cl)nc2ncnn12)C(F)(F)F |  | Lister 427 | 4 µM, 12 h |  | viability | 23.9% |
| Cc1cc(C(=O)Nc2nc3cccc(C)c3n2[C@H]2CCCCN(C(=O)/C=C/CN(C)C)C2)ccn1 | Alamar Blue | 2T1 CLK1 overexpression |  | baseline: uninduced control | EC50 shift | 6.5 fold |
| C[Se][C@@H]1O[C@H](COC(C)=O)[C@@H](OC(C)=O)[C@H](OC(C)=O)[C@H]1OC(C)=O |  | bloodstream form | 5 µM, 24 h, 1 % DMSO |  | viability | 91.9 ± 14.8% |
| CC1(C)O[C@H](COP2(=O)OCc3ccccc3O2)[C@H](C(=O)NO)O1 (some centres unmarked) | parasite growth, Alamar Blue | Lister 427 bloodstream form |  |  | IC50 | > 100000 nM |
| Nc1ncnc2c1c(Br)cn2[C@@H]1O[C@H](CO)[C@@H](O)[C@H]1O | parasite growth, resazurin | Squib 427 | 72 h |  | EC50 | 1200 ± 300 nM |
| COc1ccc(CONC(=O)C2OC(C)(C)OC2COP2(=O)OCc3ccccc3O2)c(OC)c1 (centres unmarked) | parasite growth, Alamar Blue | Lister 427 bloodstream form |  |  | IC50 | > 100000 nM |
| CC(=O)N[C@@H]1[C@@H](OC(C)=O)[C@H](OC(C)=O)[C@@H](COC(C)=O)O[C@H]1[Se]Cc1ccccc1 |  | bloodstream form | 5 µM, 24 h, 1 % DMSO |  | viability | 88.1 ± 17.5% |

For quick reference, copied from above:
| Compound | assay | system | conditions | scale | measurement | result |
| --- | --- | --- | --- | --- | --- | --- |
| Nc1ncnc2c1c(Cl)cn2[C@@H]1O[C@H](CO)[C@@H](O)[C@H]1O | parasite growth, resazurin | Squib 427 | 72 h |  | EC50 | 1330 ± 340 nM |
